# Experimental data collected from several papers.
# Each line is one published result; not all experiments were run side by side. ± gives the spread as reported.
SMILES,test,system,setting,how to read,quantity,result
N=C(N)NCCC[C@@H]1NC(=O)[C@H](Cc2c[nH]c3ccccc23)NC(=O)[C@@H](CC2CCCCC2)NC(=O)[C@@H]2CCCN2C(=O)[C@@H](NC(=O)CCc2ccccc2)CCCNC1=O,,"C57BL/6J mice, spinal cord","subcutaneous, 1 mg/kg, two-compartment model",,apparent peripheral volume (V2/F),0.05 µg/(ng/g)
NC12CNCCNCC(NCc3ccc(CNC(=O)CCCC(=O)NCc4ccc(-c5nncnn5)cc4)cc3)(CNCCNC1)CNCCNC2.[64Cu+2],OLINDA dosimetry,liver,"24 h pretargeting interval, together with: huA33-TCO pretargeting",,mean absorbed dose,0.0301 rad/mCi
C=CC(=O)Nc1cc(Nc2nccc(-c3cn(C4CC4)c4ccccc34)n2)c(OC)cc1N(C)CCNC,,"healthy Chinese male human, plasma","oral, 110 mg almonertinib, metabolite, [14C] single dose",,CL/F,99.1 ± 8.92 L/h
COCC1CN(C2CCN(c3cc(OC)c(Nc4ncc(Br)c(Nc5ccc6c(c5P(C)(C)=O)OCCO6)n4)cc3C)CC2)C1,,human,"oral, dose not given, sample A patients",,patients with treatment-related adverse events,81.5%
CC1(C)C(=CC=C(C=CC2=[N+](CCC[N+](C)(C)C)c3ccc(S(=O)(=O)[O-])cc3C2(C)C)Oc2ccc(CCC(=O)[O-])cc2)N(CCC[N+](C)(C)C)c2ccc(S(=O)(=O)[O-])cc21,,100% serum,pH 7.4,,extinction coefficient,206000 M⁻¹ cm⁻¹
Cc1ccc(OCC(=O)O)cc1,,"Sprague-Dawley rat, female, plasma","oral, 10 mg/kg/day of parent drug, day 1, 90-day repeated dosing",,t1/2,1.43 h
CC[C@@H](C)[C@H]1NC(=O)[C@@H]([C@H](C)O)NC(=O)[C@@H](Cc2c[nH]cn2)NC(=O)CNC(=O)[C@@H](CCCNC(=N)N)NC(=O)CNC(=O)[C@@H](Cc2ccccc2)NC1=O,,rat,"eye drop, single dose",baseline: retina over vitreous,retina to vitreous ratio,~10 fold
CC(C)(O)c1ncc([S@](N)(=O)=NC(=O)Nc2c3c(cc4c2CCC4)CCC3)s1,,"human, plasma","oral, 600 mg, single dose, fasted, healthy volunteers",,AUC(0-inf),839 µg·h/mL
[11CH3]c1ccc2nc(C3CCC3)n(-c3ccc4[nH]ncc4c3)c2n1,,"human female, small intestine",,,absorbed radiation dose,16 µSv/MBq
NCC(=O)N1CCC[C@H]1C(=O)N1C[C@H](O)C[C@H]1C(=O)O,potentiometric titration,,"37 °C, MA2 complex, together with: Fe(III)",,log beta,23
C[C@](C#N)(COc1cc(C#N)ccc1C(F)(F)F)NC(=O)c1ccc(S(=O)(=O)C(F)(F)F)cc1,,"calves, plasma","oral, 2.5 mg/kg of monepantel",,share of total analytes in plasma,> 80%
CCCC[C@@H]1NC(=O)[C@@H](NC(=O)[C@H](CCC(=O)O)NC(=O)CNC(=O)CN2CCN(CC(=O)O)CCN(CC(=O)O)CCN(CC(=O)O)CC2)CCCCNC(=O)C[C@@H](C(N)=O)NC(=O)[C@H](C(C)C)NC(=O)[C@@H]2CCCN2C(=O)[C@H](CCCNC(=N)N)NC(=O)CNC(=O)[C@H](Cc2c[nH]c3ccccc23)NC(=O)[C@H](CCCNC(=N)N)NC(=O)[C@@H](Cc2ccccc2)NC(=O)[C@H](Cc2c[nH]cn2)NC(=O)[C@H](CCC(=O)O)NC1=O [gallium-67 labelled],,"C57 mice, B16/F10 lung metastases","intravenous, 0.037 MBq, 4 h",,urine excretion,88.1 ± 1.12%
N[C@@H](COc1ccccc1C(F)(F)F)c1ccccc1,,"rat, plasma","intravenous, 5 mg/kg",,AUC,0.28 µg·h/mL
CCCC[C@H](NC(=O)CNC(=O)CNC(=O)CN1CCN(CC(=O)O)CCN(CC(=O)O)CCN(CC(=O)O)CC1)C(=O)N[C@H]1CC(=O)NCCCC[C@@H](C(N)=O)NC(=O)[C@H](Cc2c[nH]c3ccccc23)NC(=O)[C@H](CCCNC(=N)N)NC(=O)[C@@H](Cc2ccccc2)NC(=O)[C@H](Cc2c[nH]cn2)NC1=O [indium-111 labelled],,"C57 mouse, female, B16/F1 melanoma, urine","intravenous, 0.037 MBq, 2 h",,urinary excretion,88.5 ± 1.75%
NC[C@@H](C(=O)Nc1ccc(-c2cn[nH]c2)cc1)c1ccccc1,OECD 405 eye irritation,"New Zealand White rabbit, eye","topical, 0.1%, 24 h (day 2), scale 0 to 4",direction not given,cornea score,0
CC[C@H](C)[C@H](NC(=O)[C@@H]1CCCN1C(=O)CNC(=O)[C@H](Cc1ccccc1)NC(=O)[C@H](CC(N)=O)NC(=O)[C@H](CC(N)=O)NC(=O)[C@H](CO)NC(=O)[C@H](CO)NC(=O)[C@H](Cc1c[nH]cn1)NC(=O)[C@@H](NC(=O)[C@H](CC(C)C)NC(=O)[C@H](Cc1ccccc1)NC(=O)[C@H](CC(N)=O)NC(=O)[C@H](C)NC(=O)[C@H](CC(C)C)NC(=O)[C@H](CCCNC(=N)N)NC(=O)[C@H](CCC(N)=O)NC(=O)[C@@H](NC(=O)[C@H](C)NC(=O)[C@@H]1CSSC[C@H](NC(=O)[C@@H](N)CCCCN)C(=O)N[C@@H](CC(N)=O)C(=O)N[C@@H]([C@@H](C)O)C(=O)N[C@@H](C)C(=O)N[C@@H]([C@@H](C)O)C(=O)N1)[C@@H](C)O)C(C)C)C(=O)N[C@@H](CC(C)C)C(=O)N[C@@H](CO)C(=O)N[C@@H](CO)C(=O)N[C@H](C(=O)N[C@@H](CC(N)=O)C(=O)N[C@H](C(=O)NCC(=O)N[C@@H](CO)C(=O)N[C@@H](CC(N)=O)C(=O)N[C@H](C(=O)N[C@@H](Cc1ccc(O)cc1)C(N)=O)[C@@H](C)O)C(C)C)[C@@H](C)O,ion mobility mass spectrometry,ammonium acetate,"pH 7.5, monomer ion charge +2",,collision cross section,545.2 ± 4.4 Å²
N=C(N)NCCC[C@H](NC(=O)CON=C[C@H](F)[C@@H](O)[C@H](O)[C@H](O)CO)C(=O)NCC(=O)N[C@@H](CC(=O)O)C(=O)O [fluorine-18 labelled],,"nude mice, U-87 MG xenograft","intravenous, 0.5 h",baseline: tumour over kidney,tissue ratio,0.49 ± 0.14
CC(NC(=O)OC1OC(C(=O)O)C(O)C(O)C1O)c1cc(Cl)ccc1Cn1c(=S)[nH]c(=O)c2[nH]ccc21 (centres unmarked),,"Sprague-Dawley rat, male, plasma","oral, 125 mg/kg/day",baseline: rat over human 5 mg,exposure ratio,5.3
CCOc1ccc2c(c1)C(C)CC(C)(C)N2 (centres unmarked),LC-MS/MS,"laying hens, liver","oral in feed, 50 mg/kg feed ethoxyquin, 56 days, after glucuronidase treatment",,tissue residue,0.8 ± 1 ng/g
CC(C)[C@H](NC(=O)[C@@H]1CCCN1C(=O)[C@H](CCCNC(=N)N)NC(=O)[C@H](CS)NC(=O)[C@H](Cc1c[nH]c2ccccc12)NC(=O)[C@H](CCCNC(=N)N)NC(=O)[C@@H](Cc1ccccc1)NC(=O)[C@H](Cc1c[nH]cn1)NC(=O)[C@H](CCC(=O)O)NC(=O)[C@H](CS)NC(=O)[C@H](CS)NC(=O)[C@@H]1CC(=O)N[C@@H](CCCNC(=N)N)C(=O)NCC(=O)N[C@@H](CC(=O)O)C(=O)N[C@H](Cc2ccc(O)cc2)C(=O)N1)C(N)=O [technetium-99m labelled],,"C57 mice B16/F1 melanoma female, urine","iv, 0.037 MBq, 4 h",,excretion,85.9 ± 2.09%
O=C(NC1CCCCN=CC1=O)OCc1ccccc1 (centres unmarked),,,25 °C,,pKa,6.18 ± 0.07
COc1cc(NC(C)=O)c2c(c1O)-c1c(OC)c(OC)cc3c1C(C2)N(C)CC3 (centres unmarked),,rat brain homogenate,"100 µg/mL, 40 d, -20 °C, long-term storage",,remaining compound,90.1 ± 3.5%
CCCNCC(=O)O,shake flask,water,24 h,,logP,-1.85
CCCC[C@H](NC(=O)CNC(=O)CNC(=O)CN1CCN(CC(=O)O)CCN(CC(=O)O)CCN(CC(=O)O)CC1)C(=O)N[C@H]1CC(=O)NCCCC[C@@H](C(N)=O)NC(=O)[C@H](Cc2c[nH]c3ccccc23)NC(=O)[C@H](CCCNC(=N)N)NC(=O)[C@@H](Cc2ccccc2)NC(=O)[C@H](Cc2c[nH]cn2)NC1=O [copper-64 labelled],,"C57 mouse female B16/F1 melanoma, urine","intravenous, 0.037 MBq, 0.5 h",,urinary excretion,46 ± 4.07%
C[C@]12C[C@H](c3ccccc3)C3=C4CCC(=O)C=C4CC[C@H]3[C@@H]1CC[C@@]2(O)C(F)(F)C(F)(F)F,,rat liver microsomes,100 % absorption assumed,,maximal oral bioavailability,88%
Cc1c(C(=O)Nc2ccn(C)n2)ncn1Cc1cccc(C(F)(F)F)c1,,"C57BL/6 mice, non-transgenic, plasma","oral, drinking water, 50 mg/kg daily, 10 days",,concentration at time point,238 ± 88.4 ng/mL
CCN(CC)c1ccc2nc3c4ccccc4/c(=N/c4ccncc4)cc-3oc2c1,,"NMRI mice, infected and noninfected, plasma","oral, 20 mg/kg",,terminal half-life,~10 h
Cc1ccc(/N=N/c2c(O)ccc3ccccc23)c(C)c1,,extracted rat blood QC samples,"0.2 µg/L, 12 h, room temperature, short-term stability",,measured concentration,0.229 µg/L
Oc1cccc(-c2cccc(O)n2)n1.[Cl-].[Cl-].[Ru+2].c1cnc2c(c1)c1c(c3cccnc32)OCCO1.c1cnc2c(c1)c1c(c3cccnc32)OCCO1,shake flask,octanol/buffer,,,logP of basic form,2

# Repeated from above:
SMILES,test,system,setting,how to read,quantity,result
CCCC[C@H](NC(=O)CNC(=O)CNC(=O)CN1CCN(CC(=O)O)CCN(CC(=O)O)CCN(CC(=O)O)CC1)C(=O)N[C@H]1CC(=O)NCCCC[C@@H](C(N)=O)NC(=O)[C@H](Cc2c[nH]c3ccccc23)NC(=O)[C@H](CCCNC(=N)N)NC(=O)[C@@H](Cc2ccccc2)NC(=O)[C@H](Cc2c[nH]cn2)NC1=O [indium-111 labelled],,"C57 mouse, female, B16/F1 melanoma, urine","intravenous, 0.037 MBq, 2 h",,urinary excretion,88.5 ± 1.75%
NC[C@@H](C(=O)Nc1ccc(-c2cn[nH]c2)cc1)c1ccccc1,OECD 405 eye irritation,"New Zealand White rabbit, eye","topical, 0.1%, 24 h (day 2), scale 0 to 4",direction not given,cornea score,0
CC[C@H](C)[C@H](NC(=O)[C@@H]1CCCN1C(=O)CNC(=O)[C@H](Cc1ccccc1)NC(=O)[C@H](CC(N)=O)NC(=O)[C@H](CC(N)=O)NC(=O)[C@H](CO)NC(=O)[C@H](CO)NC(=O)[C@H](Cc1c[nH]cn1)NC(=O)[C@@H](NC(=O)[C@H](CC(C)C)NC(=O)[C@H](Cc1ccccc1)NC(=O)[C@H](CC(N)=O)NC(=O)[C@H](C)NC(=O)[C@H](CC(C)C)NC(=O)[C@H](CCCNC(=N)N)NC(=O)[C@H](CCC(N)=O)NC(=O)[C@@H](NC(=O)[C@H](C)NC(=O)[C@@H]1CSSC[C@H](NC(=O)[C@@H](N)CCCCN)C(=O)N[C@@H](CC(N)=O)C(=O)N[C@@H]([C@@H](C)O)C(=O)N[C@@H](C)C(=O)N[C@@H]([C@@H](C)O)C(=O)N1)[C@@H](C)O)C(C)C)C(=O)N[C@@H](CC(C)C)C(=O)N[C@@H](CO)C(=O)N[C@@H](CO)C(=O)N[C@H](C(=O)N[C@@H](CC(N)=O)C(=O)N[C@H](C(=O)NCC(=O)N[C@@H](CO)C(=O)N[C@@H](CC(N)=O)C(=O)N[C@H](C(=O)N[C@@H](Cc1ccc(O)cc1)C(N)=O)[C@@H](C)O)C(C)C)[C@@H](C)O,ion mobility mass spectrometry,ammonium acetate,"pH 7.5, monomer ion charge +2",,collision cross section,545.2 ± 4.4 Å²
